Measured values of several laboratories.

With `COC(=O)C1=CNC=C(C(=O)OC)C1c1ccc(F)c(C(F)(F)F)c1` the clearance was 104 mL/min/kg (male Sprague-Dawley rat, plasma; intravenous, 5 mg/kg).
With `CCOP(=O)(CC(=O)Nc1ccc(S(=O)(=O)N(CC(N)=O)c2ccc(N(CC(N)=O)S(=O)(=O)c3ccc(OC)cc3)c3ccccc23)cc1)OCC` the clearance was 38.6 mL/min/kg (male Wistar rat, plasma; intravenous, 28 mg/kg, single dose).
For `COc1cc(OC)c2c(=O)cc(-c3cc(C)c(OCCCN4CCN(C)CC4)c(C)c3)oc2c1`, the clearance was 38.3 mL/min/kg (male Sprague-Dawley rat, plasma; intravenous, 10 mg/kg, single dose).
The clearance of `CCC1(CC)CC(=O)N(C2CCOc3ccc(C(=O)NC4CC(C)(C)Oc5ccccc54)cc32)C(=N)N1` (stereo not shown) is reported as 45.7 mL/min/kg (male Wistar rat, plasma; intravenous).
`C/C(N)=N/C(=N\S(=O)(=O)c1ccc(C(F)(F)F)cc1)N1C[C@H](c2ccccc2)C(c2ccc(Cl)cc2)=N1` gave a clearance of 12.1 mL/min/kg (male Sprague-Dawley rat, plasma; intravenous, 2 mg/kg).
`Cc1cccc(Cn2ncc3c4cc(F)c(CN(C)C)cc4n(C)c3c2=O)n1` gave a CL/F of 57.4 mL/min/kg (Sprague-Dawley rat, plasma; oral, 10 mg/kg).
For `N#Cc1ccnc(N2C(=O)CC[C@H]2C(=O)N(c2cc(F)cc(F)c2)[C@H](C(=O)NC2CC(F)(F)C2)c2ccccc2Cl)c1` (stereo in doubt), the clearance was 7.5 mL/min/kg (Sprague-Dawley rat, plasma; intravenous, 1 mg/kg).
The clearance of `COC1C(c2ccc(Cl)c(Cc3ccc(OC4CCOC4)cc3)c2)OC(CO)C(O)C1O` (stereo not shown) is reported as 10.4 mL/min/kg (Sprague-Dawley rat, plasma; intravenous, 2.5 mg/kg).
For `Cc1cc2c(cc1O)C=C1C=CC(=O)C(C)(C)[C@H]1CC2`, the clearance was 53.3 mL/min/kg (male Sprague-Dawley rat, plasma; intravenous, 2 mg/kg).
The clearance of `OC1(C(F)(F)F)CCN(c2nc(Nc3ccnc(C(F)(F)F)c3)nc(-c3cccc(C(F)(F)F)n3)n2)C1` (stereo not shown) is reported as 14.1 mL/min/kg (Sprague-Dawley rat, plasma; intravenous, 1 mg/kg).
With `OCC1OC(n2cnc3c(NCc4ccc(Br)s4)ncnc32)C(O)C1O` (stereo not shown) the clearance was 9 mL/min (male Sprague-Dawley rat, blood; intravenous, 6 mg/kg).
For `COCCN(C)CC(=O)NC(Cc1ccc(-c2ccccc2)cc1)B(O)O` (stereo not shown), the clearance was 13.7 mL/min/kg (rat, plasma; intravenous, 1 mg/kg).
For `CCC(CC)n1c(Cc2cccs2)nc2cc(C(=O)N[C@@H](CC(=O)O)c3ccccc3)ccc21`, the clearance was 30.3 mL/min/kg (male Sprague-Dawley rat, plasma; intravenous, 1 mg/kg).

A few entries again:
With `CCOP(=O)(CC(=O)Nc1ccc(S(=O)(=O)N(CC(N)=O)c2ccc(N(CC(N)=O)S(=O)(=O)c3ccc(OC)cc3)c3ccccc23)cc1)OCC` the clearance was 38.6 mL/min/kg (male Wistar rat, plasma; intravenous, 28 mg/kg, single dose).
For `COc1cc(OC)c2c(=O)cc(-c3cc(C)c(OCCCN4CCN(C)CC4)c(C)c3)oc2c1`, the clearance was 38.3 mL/min/kg (male Sprague-Dawley rat, plasma; intravenous, 10 mg/kg, single dose).
